Published values pooled from the literature.
Protocols differ between the studies behind these lines. Numbers after ± are the reported error.
CASP3: Caspase-3 (CASP3, Homo sapiens, UniProt P42574)
CHRM3: Muscarinic acetylcholine receptor M3 (CHRM3, Homo sapiens, UniProt P20309)

| Compound | target | test | system | conditions | Ki [nM] |
| --- | --- | --- | --- | --- | --- |
| COc1ccc(CCCN[C@@H]2CCC[C@H]2CN[C@H]2CCC[C@@H]2CNCCCCN[C@H]2CCC[C@@H]2CN)cc1 | MAOB (Homo sapiens, UniProt P27338) | enzyme activity, inhibitor | – | – | > 500000 |
| CC(=O)N[C@@H](C)C(=O)N[C@@H](CCCCN)C(=O)N[C@H](C=O)CC(=O)O | CASP3 | enzyme activity, inhibitor, fluorescence | – | pH 7 | > 100000 |
| N#Cc1c(N)nc(SCc2ncc[nH]2)c(C#N)c1-c1ccc(O)cc1 | Adenosine receptor A2a, Δ40 C-terminal truncation (ADORA2A, Homo sapiens, UniProt P29274) | binding | – | – | 18 |
| O=C(COc1ccc2ccccc2c1)NCc1ccc(OP(=O)(O)O)cc1 | Signal transducer and activator of transcription 5A, SH2 (Homo sapiens, UniProt P42229) | ligand displacement, FP | – | – | 40000 |
| FC(F)(F)c1ccc(C(=NOCCCN2CCCCC2)c2ccccc2)cc1 (mixture of isomers) | Sigmar1 (Rattus norvegicus, UniProt Q9R0C9) | binding | – | – | 56.1 ± 6.31 |
| O=C1Nc2ccccc2N(C(=O)CN2CCC(CCCCN3CCC(OC(=O)C(c4ccccc4)c4ccccc4)CC3)CC2)c2ccccc21 | CHRM3 | ligand displacement, radioligand | – | – | 34.7 |
| C[C@H](CCC(=O)N[C@@H](CCC(=O)Nc1ccc(O)cc1)C(=O)O)[C@H]1CC[C@H]2[C@@H]3[C@H](O)C[C@@H]4C[C@H](O)CC[C@]4(C)[C@H]3CC[C@]12C | SLC10A2 (Homo sapiens, UniProt Q12908) | taurocholate uptake, inhibitor | ASBT-MDCK | 10 min, added: taurocholate 2.5 µM | 7180 |
| C=C1CCC(O)C(C)=CCC2C1CC2(C)C(=O)C=CC(C)(C)O (stereo not drawn) | PNLIP (Sus scrofa, UniProt P00591) | enzyme activity, inhibitor | – | – | 84200 |
| NCC1Cc2cccc(-c3ccc(S(N)(=O)=O)cc3F)c2O1 (stereo not drawn) | ADRB2 (Homo sapiens, UniProt P07550) | ligand displacement, radioligand | – | cell membranes | 2000 to 25100 |
| N#Cc1c(N)nc(SCc2ncc[nH]2)c(C#N)c1-c1cccc(F)c1 | ADORA3 (Homo sapiens, UniProt P0DMS8) | ligand displacement, radioligand | – | cell membranes | 261 |
| Cc1cc2nc3n(c2cc1C)C(C)(C)NC(N)=N3 | Bifunctional dihydrofolate reductase-thymidylate synthase, DHFR domain (Trypanosoma cruzi, UniProt Q27793) | enzyme activity, competitive inhibitor | – | added: dihydrofolate 60 µM, NADPH 100 µM | 1380 |
| O=C(OC1CCN(CCOCCOCCN2CCC(OC(=O)C(c3ccccc3)c3ccccc3)CC2)CC1)C(c1ccccc1)c1ccccc1 | CHRM5 (Homo sapiens, UniProt P08912) | ligand displacement, radioligand | – | – | 1350 |
| CC(=O)N[C@@H](CCCNC(=N)N)C(=O)N[C@@H](C)C(=O)N[C@H](C=O)CC(=O)O | CASP3 | enzyme activity, inhibitor, fluorescence | – | pH 7 | > 100000 |
| CN1CCC=C(c2nsnc2OCCCN2CCN(CCCCC3CCN(CC(=O)N4c5ccccc5NC(=O)c5ccccc54)CC3)CC(N)C2)C1 (stereo not drawn) | CHRM3 | ligand displacement, radioligand | – | – | 61.7 |
| CC(=O)N[C@H](C(=O)N[C@H](C(=O)N[C@@H](CCCN)C(=O)N[C@H](C=O)CC(=O)O)C(C)C)[C@@H](C)O | CASP3 | enzyme activity, inhibitor, fluorescence | – | pH 7 | 17000 |
